Measurements pooled from the literature.
Compare with care: the assays were run in different laboratories. ± gives the spread as reported.
Organism: HIV-1

Cc1cccc(-c2cc(C#N)cc(Oc3c(C(F)(F)F)ccn(Cc4n[nH]c(=O)n4C)c3=O)c2)c1 — selectivity index (MT4, wild type; baseline: CC50 over EC50): 2020
CC[C@H](C)[C@H](N)C(=O)N[C@@H](CC(N)=O)C(=O)N[C@@H](CC(N)=O)C(=O)N[C@H](C(=O)N1CC(n2cc([C]34[CH]5[CH]6[CH]7[CH]3[Fe]6754389%10[CH]4[CH]3[CH]8[CH]9[CH]4%10)nn2)C[C@H]1C(=O)N[C@@H](Cc1c[nH]c2ccccc12)C(N)=O)[C@@H](C)CC (some centres unmarked) — potency fold improvement (viral infection; Bal.01; in mixture with other component; baseline: compound alone): ~7 fold
CC(C)N1CCn2cc(C(=O)NCc3ccc(F)cc3F)c(=O)c(O)c2C1=O — antiviral potency ratio (single-round infection; integrase G140S/Q148R vector; baseline: cpd over cabotegravir): > 36
Cl.Cl.Cl.Cl.Cl.Cl.Cl.Cl.Cl.Cl.Cl.Cl.NC[C@@H]1O[C@H](O[C@H]2[C@@H](O)[C@H](O[C@@H]3[C@@H](O)[C@H](N)C[C@H](N)[C@H]3O[C@H]3O[C@H](CN)[C@@H](O)[C@H](O)[C@H]3N)O[C@@H]2Cn2cc(CCCCCCc3cn(C[C@H]4O[C@@H](O[C@@H]5[C@@H](O)[C@H](N)C[C@H](N)[C@H]5O[C@H]5O[C@H](CN)[C@@H](O)[C@H](O)[C@H]5N)[C@H](O)[C@@H]4O[C@H]4O[C@@H](CN)[C@@H](O)[C@H](O)[C@H]4N)nn3)nn2)[C@H](N)[C@@H](O)[C@@H]1O — protection (reverse transcriptase release; MT-2, NL4-3; concentration not given, day 4; baseline: virus control): 90%
O=C1c2c(ccc(O)c2O)CN1Cc1ccc(F)c(Cl)c1 — EC50 (viral replication; wild type, VSV-G pseudotyped): 450 ± 110 nM
CC(=O)N[C@@H](CS)C(=O)N[C@@H](CO)C(=O)N[C@@H](CO)C(=O)N[C@@H](Cc1c[nH]c2ccccc12)C(=O)N[C@@H](Cc1ccc(O)cc1)C(=O)N1CCC[C@H]1C(=O)N[C@@H](Cc1ccccc1)C(=O)N[C@@H](CO)C(=O)N[C@@H](CCC(N)=O)C(=O)N[C@@H](Cc1ccc(O)cc1)C(=O)N[C@@H](CCC(N)=O)C(=O)N[C@@H](Cc1c[nH]c2ccccc12)C(=O)N[C@@H](Cc1c[nH]c2ccccc12)C(=O)N[C@@H](CCCCN)C(N)=O — neutralisation activity (89.6 (R5/X4); concentration not given): inactive
O=C1c2ccc(O)c(O)c2C(=O)N1Cc1cccc(Cl)c1F — EC50 (viral replication; integrase Y143R mutant, VSV-G pseudotyped): 1200 ± 200 nM
CC[C@H](C)[C@H](N)C(=O)N[C@@H](CO)C(=O)N[C@@H](Cc1ccccc1)C(=O)N[C@@H]1CSCc2ccc(cc2)-c2ccc(cc2)CSC[C@@H](C(=O)N[C@@H](CCC(=O)O)C(=O)N[C@@H](CO)C(=O)NCC(=O)N[C@@H](CO)C(N)=O)NC(=O)[C@H](Cc2ccc(O)cc2)NC(=O)[C@H](Cc2ccc(O)cc2)NC(=O)[C@H](CC(=O)O)NC(=O)[C@H](CC(C)C)NC(=O)[C@H](CC(C)C)NC(=O)[C@H](CCC(=O)O)NC1=O — IC50 (viral entry, single-cycle pseudovirus; Env Du156, subtype C): 17900 ± 1700 nM

Excerpt of the above:
Cl.Cl.Cl.Cl.Cl.Cl.Cl.Cl.Cl.Cl.Cl.Cl.NC[C@@H]1O[C@H](O[C@H]2[C@@H](O)[C@H](O[C@@H]3[C@@H](O)[C@H](N)C[C@H](N)[C@H]3O[C@H]3O[C@H](CN)[C@@H](O)[C@H](O)[C@H]3N)O[C@@H]2Cn2cc(CCCCCCc3cn(C[C@H]4O[C@@H](O[C@@H]5[C@@H](O)[C@H](N)C[C@H](N)[C@H]5O[C@H]5O[C@H](CN)[C@@H](O)[C@H](O)[C@H]5N)[C@H](O)[C@@H]4O[C@H]4O[C@@H](CN)[C@@H](O)[C@H](O)[C@H]4N)nn3)nn2)[C@H](N)[C@@H](O)[C@@H]1O — protection (reverse transcriptase release; MT-2, NL4-3; concentration not given, day 4; baseline: virus control): 90%
